Measurements collected from several papers.
Each line is one published result; not all experiments were run side by side. Several values in a cell are separate wells, animals, samples, runs or records. ± gives the spread as reported.
Chain of UniProt P19321 (whole entry, looked up): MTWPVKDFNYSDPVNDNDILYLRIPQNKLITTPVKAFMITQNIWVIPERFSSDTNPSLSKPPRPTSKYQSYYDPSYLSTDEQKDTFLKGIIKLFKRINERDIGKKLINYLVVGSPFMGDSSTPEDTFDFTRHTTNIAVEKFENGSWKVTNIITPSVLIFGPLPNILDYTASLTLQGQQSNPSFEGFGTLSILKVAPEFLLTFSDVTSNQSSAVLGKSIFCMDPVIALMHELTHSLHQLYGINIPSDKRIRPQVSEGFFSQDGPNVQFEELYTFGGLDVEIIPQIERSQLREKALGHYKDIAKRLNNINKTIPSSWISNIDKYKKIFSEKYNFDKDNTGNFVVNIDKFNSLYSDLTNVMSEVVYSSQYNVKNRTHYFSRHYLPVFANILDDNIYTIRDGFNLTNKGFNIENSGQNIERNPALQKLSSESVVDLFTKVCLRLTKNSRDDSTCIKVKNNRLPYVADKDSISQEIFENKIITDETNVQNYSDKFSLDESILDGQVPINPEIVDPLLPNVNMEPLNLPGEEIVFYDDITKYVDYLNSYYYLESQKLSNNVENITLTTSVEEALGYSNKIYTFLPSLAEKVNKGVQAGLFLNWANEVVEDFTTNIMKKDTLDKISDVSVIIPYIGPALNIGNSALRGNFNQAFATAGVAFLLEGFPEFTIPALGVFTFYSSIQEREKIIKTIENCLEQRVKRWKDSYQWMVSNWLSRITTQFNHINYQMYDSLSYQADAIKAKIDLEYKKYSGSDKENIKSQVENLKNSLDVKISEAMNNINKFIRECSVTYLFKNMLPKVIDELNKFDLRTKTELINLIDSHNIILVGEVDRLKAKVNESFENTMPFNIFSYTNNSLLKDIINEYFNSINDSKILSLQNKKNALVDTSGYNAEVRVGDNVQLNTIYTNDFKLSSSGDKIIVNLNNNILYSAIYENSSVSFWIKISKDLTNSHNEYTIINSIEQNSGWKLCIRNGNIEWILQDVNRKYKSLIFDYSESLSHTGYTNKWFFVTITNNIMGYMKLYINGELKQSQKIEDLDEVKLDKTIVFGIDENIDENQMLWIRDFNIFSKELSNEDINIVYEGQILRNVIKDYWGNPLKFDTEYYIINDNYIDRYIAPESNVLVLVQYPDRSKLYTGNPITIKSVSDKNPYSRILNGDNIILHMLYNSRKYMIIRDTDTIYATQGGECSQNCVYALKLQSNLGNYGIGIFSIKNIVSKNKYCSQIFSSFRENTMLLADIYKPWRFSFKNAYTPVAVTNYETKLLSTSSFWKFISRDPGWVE
Chain of UniProt P01556 (whole entry, looked up): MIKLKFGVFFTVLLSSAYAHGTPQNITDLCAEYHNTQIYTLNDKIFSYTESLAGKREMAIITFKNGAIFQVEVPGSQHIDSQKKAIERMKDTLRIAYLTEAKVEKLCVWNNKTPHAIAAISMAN
Chain of UniProt Q15858 (whole entry, looked up): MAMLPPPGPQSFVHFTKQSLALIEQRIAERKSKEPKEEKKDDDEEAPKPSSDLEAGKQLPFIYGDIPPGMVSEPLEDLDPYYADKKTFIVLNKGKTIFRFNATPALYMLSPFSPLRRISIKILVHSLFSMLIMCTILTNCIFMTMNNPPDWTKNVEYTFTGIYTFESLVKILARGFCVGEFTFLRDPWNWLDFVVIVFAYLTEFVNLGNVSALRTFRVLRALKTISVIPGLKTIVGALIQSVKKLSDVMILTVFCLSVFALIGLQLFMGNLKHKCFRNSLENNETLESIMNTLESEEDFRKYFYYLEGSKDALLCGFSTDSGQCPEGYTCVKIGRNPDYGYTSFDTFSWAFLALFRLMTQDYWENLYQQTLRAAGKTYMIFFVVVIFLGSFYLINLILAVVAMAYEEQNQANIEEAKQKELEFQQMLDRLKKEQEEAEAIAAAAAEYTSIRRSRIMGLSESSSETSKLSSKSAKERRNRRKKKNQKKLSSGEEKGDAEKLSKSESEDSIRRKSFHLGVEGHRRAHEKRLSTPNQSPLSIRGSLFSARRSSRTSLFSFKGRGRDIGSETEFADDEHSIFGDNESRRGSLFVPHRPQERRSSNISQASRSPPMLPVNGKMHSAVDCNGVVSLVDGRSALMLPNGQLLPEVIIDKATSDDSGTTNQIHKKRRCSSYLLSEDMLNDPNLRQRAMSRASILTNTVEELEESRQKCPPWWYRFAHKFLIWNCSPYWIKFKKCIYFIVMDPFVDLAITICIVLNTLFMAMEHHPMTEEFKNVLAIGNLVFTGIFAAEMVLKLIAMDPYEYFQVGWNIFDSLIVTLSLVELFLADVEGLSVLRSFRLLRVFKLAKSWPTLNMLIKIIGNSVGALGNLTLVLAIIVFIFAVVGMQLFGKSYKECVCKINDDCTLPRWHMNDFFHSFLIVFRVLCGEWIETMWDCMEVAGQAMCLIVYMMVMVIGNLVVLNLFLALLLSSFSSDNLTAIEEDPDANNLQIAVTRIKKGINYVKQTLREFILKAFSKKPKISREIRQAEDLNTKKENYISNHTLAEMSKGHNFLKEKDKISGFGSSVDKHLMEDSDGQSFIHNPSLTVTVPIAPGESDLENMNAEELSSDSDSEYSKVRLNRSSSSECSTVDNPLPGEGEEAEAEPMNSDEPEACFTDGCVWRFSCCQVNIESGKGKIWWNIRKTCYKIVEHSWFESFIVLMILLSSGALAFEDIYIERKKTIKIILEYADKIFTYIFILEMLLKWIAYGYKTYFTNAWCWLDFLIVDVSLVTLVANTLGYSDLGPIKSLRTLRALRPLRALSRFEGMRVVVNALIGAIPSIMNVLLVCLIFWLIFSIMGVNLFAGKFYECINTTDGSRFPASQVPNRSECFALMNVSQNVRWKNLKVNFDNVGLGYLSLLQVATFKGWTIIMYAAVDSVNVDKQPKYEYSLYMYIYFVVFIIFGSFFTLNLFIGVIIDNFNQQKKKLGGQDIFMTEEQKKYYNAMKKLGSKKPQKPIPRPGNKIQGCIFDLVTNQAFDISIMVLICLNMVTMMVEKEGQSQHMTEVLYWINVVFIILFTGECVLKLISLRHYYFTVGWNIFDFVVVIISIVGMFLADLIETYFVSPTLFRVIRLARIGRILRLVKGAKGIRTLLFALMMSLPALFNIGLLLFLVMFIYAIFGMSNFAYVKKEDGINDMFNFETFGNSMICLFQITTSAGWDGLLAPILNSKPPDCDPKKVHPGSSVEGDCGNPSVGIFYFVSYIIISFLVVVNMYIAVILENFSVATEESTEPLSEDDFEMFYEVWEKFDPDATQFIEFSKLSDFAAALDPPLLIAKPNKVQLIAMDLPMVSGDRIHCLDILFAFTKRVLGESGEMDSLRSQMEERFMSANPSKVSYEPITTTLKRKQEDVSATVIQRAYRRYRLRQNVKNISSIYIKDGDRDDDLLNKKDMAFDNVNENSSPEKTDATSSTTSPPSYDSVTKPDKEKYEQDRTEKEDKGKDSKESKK
Chain of UniProt P02708 (whole entry, looked up): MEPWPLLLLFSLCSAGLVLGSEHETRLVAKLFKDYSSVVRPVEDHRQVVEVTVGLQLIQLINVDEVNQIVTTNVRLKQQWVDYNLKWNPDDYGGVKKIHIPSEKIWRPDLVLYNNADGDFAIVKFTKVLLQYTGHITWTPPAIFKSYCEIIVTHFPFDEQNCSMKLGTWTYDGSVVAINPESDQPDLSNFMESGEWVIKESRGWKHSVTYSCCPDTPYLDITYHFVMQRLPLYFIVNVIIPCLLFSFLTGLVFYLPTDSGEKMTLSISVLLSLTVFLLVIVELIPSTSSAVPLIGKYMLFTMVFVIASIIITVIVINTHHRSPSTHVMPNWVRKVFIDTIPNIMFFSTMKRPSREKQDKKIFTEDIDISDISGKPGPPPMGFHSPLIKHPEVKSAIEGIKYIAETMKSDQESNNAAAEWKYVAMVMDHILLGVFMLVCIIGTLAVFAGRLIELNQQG
Chain of UniProt P07510 (whole entry, looked up): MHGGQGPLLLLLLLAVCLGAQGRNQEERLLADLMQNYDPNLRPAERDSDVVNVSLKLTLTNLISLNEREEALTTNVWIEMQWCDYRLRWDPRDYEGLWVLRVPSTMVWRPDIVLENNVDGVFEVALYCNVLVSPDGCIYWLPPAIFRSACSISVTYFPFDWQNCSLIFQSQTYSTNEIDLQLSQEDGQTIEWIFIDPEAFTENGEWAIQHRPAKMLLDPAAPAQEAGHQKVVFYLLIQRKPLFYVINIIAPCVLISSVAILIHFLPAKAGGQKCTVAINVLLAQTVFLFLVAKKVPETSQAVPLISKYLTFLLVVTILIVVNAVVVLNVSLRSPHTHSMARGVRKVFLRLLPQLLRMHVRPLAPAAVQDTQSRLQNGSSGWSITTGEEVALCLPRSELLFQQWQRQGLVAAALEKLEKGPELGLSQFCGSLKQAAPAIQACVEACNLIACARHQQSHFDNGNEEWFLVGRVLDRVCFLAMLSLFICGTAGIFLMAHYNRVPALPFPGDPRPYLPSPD
Chain of UniProt Q07001 (whole entry, looked up): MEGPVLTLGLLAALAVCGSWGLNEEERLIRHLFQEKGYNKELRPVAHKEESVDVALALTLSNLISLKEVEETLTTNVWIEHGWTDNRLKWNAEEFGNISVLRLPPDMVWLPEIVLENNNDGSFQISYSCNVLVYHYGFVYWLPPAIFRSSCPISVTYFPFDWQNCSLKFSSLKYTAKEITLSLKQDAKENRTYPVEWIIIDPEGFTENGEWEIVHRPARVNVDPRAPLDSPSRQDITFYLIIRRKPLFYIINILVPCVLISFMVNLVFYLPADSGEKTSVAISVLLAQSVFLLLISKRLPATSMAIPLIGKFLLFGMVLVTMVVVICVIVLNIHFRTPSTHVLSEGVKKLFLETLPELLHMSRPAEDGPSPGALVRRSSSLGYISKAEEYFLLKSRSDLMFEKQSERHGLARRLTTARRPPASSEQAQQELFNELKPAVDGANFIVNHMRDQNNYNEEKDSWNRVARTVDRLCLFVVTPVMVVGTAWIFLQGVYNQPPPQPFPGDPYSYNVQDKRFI

SMILES = CC(C)C[C@@H]1NC(=O)[C@H](CCCNC(=N)N)NC(=O)[C@@H]2CCCN2C(=O)[C@@H]2CSSC[C@H](NC(=O)CNC(=O)[C@@H]3CCCN3C(=O)[C@H](CCCCN)NC(=O)[C@H](CC(=O)O)NC(=O)[C@@H](NC(=O)CN)C(C)C)C(=O)N[C@@H](CCCNC(=N)N)C(=O)N[C@@H](Cc3ccc(O)cc3)C(=O)N[C@@H](CC(C)C)C(=O)N[C@@H](Cc3ccccc3)C(=O)NCC(=O)NCC(=O)N[C@H]3CSSC[C@H](NC(=O)CNC1=O)C(=O)N[C@@H](CCCCN)C(=O)NCC(=O)N[C@@H](CCCCN)C(=O)NCC(=O)N[C@@H](Cc1c[nH]cn1)C(=O)N[C@@H](CC(=O)O)C(=O)N[C@@H](Cc1ccc(O)cc1)C(=O)N[C@H](C(=O)N[C@@H](C)C(=O)N[C@@H](Cc1c[nH]c4ccccc14)C(=O)N[C@@H](CC(=O)O)C(=O)NCC(=O)N[C@H](C(=O)N[C@@H](Cc1ccccc1)C(=O)N[C@@H](CO)C(=O)N[C@@H](CC(=O)O)C(=O)O)[C@@H](C)O)CSSC[C@H](NC(=O)[C@H](CC(=O)O)NC(=O)[C@H](CC(=O)O)NC(=O)[C@H](CC(=O)O)NC(=O)[C@H](CO)NC(=O)[C@H](CCCCN)NC3=O)C(=O)N2; target = SCN9A (Homo sapiens, UniProt Q15858); system = HEK293; conditions = 1 µM, test -10 mV holding -80 mV; quantity = fast inactivation time constant; result = 2.7 ± 0.4 ms
SMILES = CC[C@H](C)[C@H](NC(=O)[C@H](Cc1ccccc1)NC(=O)[C@@H](N)C(C)C)C(=O)N[C@@H](CC(N)=O)C(=O)N[C@H](C(=O)N[C@@H](CCCCN)C(=O)N[C@H]1CSSC[C@@H]2NC(=O)[C@H](CCCCN)NC(=O)CNC(=O)[C@H](C)NC(=O)[C@H](C)NC(=O)[C@H](CCCCN)NC(=O)CNC(=O)[C@H](C(C)C)NC(=O)[C@H](C)NC(=O)[C@H](C)NC(=O)[C@H](CCCCN)NC(=O)[C@@H]3CSSC[C@@H](C(=O)N[C@@H](Cc4ccc(O)cc4)C(=O)N4CCC[C@H]4C(=O)O)NC(=O)[C@H](CCCCN)NC(=O)[C@H](CSSC[C@H](NC(=O)[C@H](CCC(=O)O)NC(=O)[C@H](CCCCN)NC(=O)[C@H](CO)NC(=O)CNC(=O)[C@H](CCCNC(=N)N)NC1=O)C(=O)N[C@@H](CC(C)C)C(=O)N1CCC[C@H]1C(=O)N[C@@H](C)C(=O)N3)NC(=O)[C@H](CCCCN)NC(=O)CNC(=O)[C@H](CC(N)=O)NC(=O)[C@H](CCSC)NC2=O)C(C)C; target = Sh (Drosophila melanogaster, UniProt P08510); test = toxin block destabilisation, blocker; conditions = 360 nM, with: external Cs+; quantity = Hill coefficient; result = 2.3
SMILES = CSCC[C@H](NC(=O)[C@H](CCN)NC(=O)[C@@H](NC(=O)[C@H](Cc1c[nH]c2ccccc12)NC(=O)[C@H](CCCNC(=N)N)NC(=O)[C@@H](N)CCNc1ccc([N+](=O)[O-])cc1[N+](=O)[O-])[C@@H](C)O)C(=O)N[C@@H](CC(C)C)C(N)=O; target = Botulinum neurotoxin type D (botD, Clostridium botulinum D phage, UniProt P19321); test = enzyme activity, inhibitor; conditions = concentration not given; quantity = inhibition; result = 0%
SMILES = C[C@H](NCc1ccc(-c2ccc(C(F)(F)F)cc2)cc1)C(N)=O; target = CHRNA1/CHRNG/CHRND (Homo sapiens, UniProt P02708+P07510+Q07001); test = binding; system = biochemical; conditions = 1 µM; quantity = inhibition; result = -5%
SMILES = Cc1ccc(OCCN(C)C)cc1C(=O)N[C@H](C)c1cc(-c2cccnc2N2CCCC2)nc2ccccc12; target = Replicase polyprotein 1ab, papain-like protease (rep, Severe acute respiratory syndrome coronavirus 2, UniProt P0DTD1); test = reporter gene, cell-based; quantity = GFP/mCherry signal ratio; result = 76.2 and 0 and 62 and 103 and 85
SMILES = CNC(C)C1C(O)CC2(C)C3CCC4C(C)(C)C(NC)CCC45CC35CCC12C (stereo not drawn); target = Spike glycoprotein (Severe acute respiratory syndrome coronavirus 2, UniProt P0DTC2); test = binding; quantity = kon; result = 626 M⁻¹ s⁻¹
SMILES = CC(C)C[C@H](NC(=O)OCc1ccccc1)C(=O)N[C@@H](C[C@@H]1CCNC1=O)C(O)S(=O)(=O)O (stereo partly drawn); target = Replicase polyprotein 1ab, main protease (rep, Middle East respiratory syndrome-related coronavirus, UniProt K9N7C7); test = thermal stability; quantity = ΔTm; result = 17.2 °C
SMILES = CC(=O)N[C@@H](Cc1cn(CCO[C@@H]2O[C@H](CO)[C@H](O)[C@H](O)[C@H]2O)nn1)C(N)=O; target = ctxB, pentamer (Vibrio cholerae, UniProt P01556); conditions = concentration not given; how to read = reference: galactose; quantity = inhibition potency; result = 10 fold
SMILES = Cc1ccc(N)cc1C(=O)NC1(c2ccc3c4c(cccc24)CC3)CC1; target = Replicase polyprotein 1a, papain-like protease (Severe acute respiratory syndrome coronavirus 2, UniProt P0DTC1); test = binding; conditions = 10 µM; quantity = thermal shift (ΔTm); result = 11.6 °C and 12.2 °C and 12.6 °C

A few entries again:
SMILES = CC[C@H](C)[C@H](NC(=O)[C@H](Cc1ccccc1)NC(=O)[C@@H](N)C(C)C)C(=O)N[C@@H](CC(N)=O)C(=O)N[C@H](C(=O)N[C@@H](CCCCN)C(=O)N[C@H]1CSSC[C@@H]2NC(=O)[C@H](CCCCN)NC(=O)CNC(=O)[C@H](C)NC(=O)[C@H](C)NC(=O)[C@H](CCCCN)NC(=O)CNC(=O)[C@H](C(C)C)NC(=O)[C@H](C)NC(=O)[C@H](C)NC(=O)[C@H](CCCCN)NC(=O)[C@@H]3CSSC[C@@H](C(=O)N[C@@H](Cc4ccc(O)cc4)C(=O)N4CCC[C@H]4C(=O)O)NC(=O)[C@H](CCCCN)NC(=O)[C@H](CSSC[C@H](NC(=O)[C@H](CCC(=O)O)NC(=O)[C@H](CCCCN)NC(=O)[C@H](CO)NC(=O)CNC(=O)[C@H](CCCNC(=N)N)NC1=O)C(=O)N[C@@H](CC(C)C)C(=O)N1CCC[C@H]1C(=O)N[C@@H](C)C(=O)N3)NC(=O)[C@H](CCCCN)NC(=O)CNC(=O)[C@H](CC(N)=O)NC(=O)[C@H](CCSC)NC2=O)C(C)C; target = Sh (Drosophila melanogaster, UniProt P08510); test = toxin block destabilisation, blocker; conditions = 360 nM, with: external Cs+; quantity = Hill coefficient; result = 2.3
